Results of several laboratories.
Numbered parts are unrelated; each lists some results of a single study.

Study 1
Target: RING finger protein unkempt homolog, zinc fingers 1-6, GST-SBP tag (UNK, Homo sapiens, UniProt Q9C0B0, residues 30-357)
Method: RNA Bind-n-Seq
Form: RNA
Matrix: in vitro
Concentration: not given
Notes: RNA with constant flanks, ends assumed
Reference: input RNA pool
Reading: higher = stronger binding
Residues (chain): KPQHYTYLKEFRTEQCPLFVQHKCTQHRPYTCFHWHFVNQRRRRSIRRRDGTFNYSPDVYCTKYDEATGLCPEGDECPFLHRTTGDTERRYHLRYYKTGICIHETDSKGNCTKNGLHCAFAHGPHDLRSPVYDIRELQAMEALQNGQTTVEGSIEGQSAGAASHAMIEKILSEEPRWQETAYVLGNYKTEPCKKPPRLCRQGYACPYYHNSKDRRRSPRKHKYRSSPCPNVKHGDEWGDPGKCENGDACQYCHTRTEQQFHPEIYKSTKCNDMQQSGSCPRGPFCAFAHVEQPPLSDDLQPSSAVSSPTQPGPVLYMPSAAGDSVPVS
The bound/input enrichment of `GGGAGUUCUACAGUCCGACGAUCGCUUCUAAAAUGUGAUUAUCGACCAUGGUAUGCAUGAUCGUUGUAAUUGUUGACAUUCCUUUCCGAAGUUGUGAAAUGUUACAACUUGUGCUUCUGUAGACACAAUCUUCUGUCUCCAUACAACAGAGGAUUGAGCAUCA` is reported as 0.182 ratio.
With `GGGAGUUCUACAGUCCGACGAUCAGGAUAAACUAAGCCAUUUUAUGUAUUUUAUUUUAAACCUUAUUUUGGCAGAGUAAUUCCUCCGAAUUGGAAAAGCUGUUACUUUGAAAUUACCAAUUUAUUACAAAACAUAGAAAUGUACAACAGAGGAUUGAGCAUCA` the bound/input enrichment was 2.31 ratio.
For `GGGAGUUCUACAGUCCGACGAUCAACAGAAGAAAAGUAAUGGACUCUGAUGAAGAUGACGAUUAUUGAACUACAAGUGCUCACAGACCCGAACUUAACGGAACAAGUCUAGGACAGAAGUUAAGAUCUGAUUAUUUACUUUGUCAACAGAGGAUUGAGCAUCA`, the bound/input enrichment was 0.0527 ratio.
For `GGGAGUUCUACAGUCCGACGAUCCAGCCUGGGGACACAGCCAAGGCUGUGGUGGCACAAGCUGUCCGUCAUCUCCCGCAGUCUGUCCGGAUUUACAUCAGAGCAGCAGAGCUAGAAACAGACAUUCGAGCAAAGAAGCGUGUUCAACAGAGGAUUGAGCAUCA`, the bound/input enrichment was 0.137 ratio.
With `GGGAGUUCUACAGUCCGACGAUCGUCUGCAUUUAUCUUUCUUCCAAGUUUUUCUAAUUCUAAUGCUAUUUGUUAUAAUUCCGGUUUGGGAUAAAAAUAUGCUUUUGGAAGAUUUAAAAAGAAAAUUAAAACAGCUCUUCCUGACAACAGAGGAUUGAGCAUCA` the bound/input enrichment was 1.11 ratio.
For `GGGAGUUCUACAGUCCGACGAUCAAAGAGUGGAUAGAGUGUGCACACGGGAUCGGUGGGACCCGGGCGAAAAAGGAGUGCAAGACCGAGUUCGAUGACUUCGAAGAGUGCUUGCUUCGGUACAAAACGAUGAGGCGAAUGCAUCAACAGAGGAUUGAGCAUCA`, the bound/input enrichment was 0.24 ratio.
For `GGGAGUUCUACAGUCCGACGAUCUUUGAAAGAAAAAUACCAUGUCUCUAAGCCAACUUUAAUUGCUUAAAAGACAUUUUUAUUCCGUUGAAAAAUCUAGUUUUUUUUGUAAACUGUAUCAAAUCUGUAUAUGUUGUAAUAAAACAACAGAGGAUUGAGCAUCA`, the bound/input enrichment was 6.32 ratio.
`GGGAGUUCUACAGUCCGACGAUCCCUCUUGUGGGCAAGGACAGUUUUAAUGUUGAUCCCAGCAGUGUGUGUCUUUAUUUCCUCACCCGAGCCGGAAAAAGCCCAGUGUAUUCCUCAUGAAUGCUCUCUAAACCUGUGAAGAGCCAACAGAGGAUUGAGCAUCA` gave a bound/input enrichment of 0.105 ratio.

Study 2
Organism: Saccharomyces cerevisiae
Read-out: cell growth
Method: competitive growth deep sequencing
Form: peptide
Notes: peptide tiling library
Added: cyclin E2-Cln2 fusion
Reading: direction not given
With `NSMKELNFSHLPSNSV` the enrichment score was 0.567.
For `DVSERGYVILPNDYFE`, the enrichment score was 0.584.
With `QNPCGSKACRRLFGPV` the enrichment score was 0.17.
`DKYDEGLYRFNSLNDL` has an enrichment score of 0.333.
With `AKRSLGFLPQPVPL` the enrichment score was -0.15.
`NESHLDKEHDAVEVAD` has an enrichment score of 0.434.
The enrichment score of `ATNSSHTDAHEILVSD` is reported as 0.688.
`GTPKRCLDLSNLSSGE` has an enrichment score of 0.0457.
With `SPPRGRRLFPPGPAGF` the enrichment score was -0.503.
`PHKTFRKLRLFDTPHT` has an enrichment score of -1.82.
`EHCRVLFLDHVMYTIH` has an enrichment score of -1.39.
`RTEALEQGGLPKKLIF` has an enrichment score of 0.724.
With `ESSQLTVQAEFDMSAI` the enrichment score was 0.662.

Study 3
Target: Histone acetyltransferase KAT6A, winged helix 1, GST fusion (KAT6A, Homo sapiens, UniProt Q92794, residues 1-85)
Method: protein binding microarray
Form: double-stranded DNA, one strand shown
Matrix: in vitro
Concentration: not given
Notes: 8-mer, flanks averaged, mean of 2 arrays, mostly near background
Reference: not given
Reading: higher = stronger binding
Target sequence (chain): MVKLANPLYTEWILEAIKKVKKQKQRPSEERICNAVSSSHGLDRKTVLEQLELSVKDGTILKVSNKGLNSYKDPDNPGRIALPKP
`ACGGGAGG` has an E-score of 0.277.
For `GCACACTA`, the E-score was 0.0339.
With `AAACGAGA` the E-score was -0.0268.
With `ACCTCTTC` the E-score was -0.0461.
`CCGGCAGA` gave an E-score of 0.114.
With `CGCTGGCA` the E-score was 0.0705.
`TAACGCGA` has an E-score of 0.239.
With `CTTCCGGC` the E-score was 0.12.
`AAAGTTAT` gave an E-score of -0.0536.
For `CTATGCAC`, the E-score was -0.079.
`AGTGAGCA` gave an E-score of -0.124.
`GGAATTTA` gave an E-score of -0.0212.
The E-score of `TACTCCGA` is reported as 0.00763.
The E-score of `GACGGACA` is reported as 0.317.
For `TAATATGA`, the E-score was -0.00236.
With `CAACCGTC` the E-score was 0.22.
With `AGTAAAAT` the E-score was -0.157.
`GATGTTAA` gave an E-score of -0.131.
`CGGACCCA` gave an E-score of 0.135.
For `CCTCTTAC`, the E-score was -0.188.
`ACAACTGC` has an E-score of -0.0105.
With `GACCAGAA` the E-score was -0.228.
For `CGTTATAA`, the E-score was 0.123.
`CTTGCGTC` has an E-score of 0.135.
`AGAGGAGG` has an E-score of -0.246.

Study 4
Target: RNA binding protein fox-1 homolog 2, RRM domain, GST-SBP tag (RBFOX2, Homo sapiens, UniProt O43251-10, residues 100-194)
Method: RNA Bind-n-Seq
Form: RNA
Matrix: in vitro
Concentration: 365 nM
Notes: natural RNA segment, single round, ends assumed
Reference: no-protein control
Reading: higher = stronger binding
Target sequence (chain): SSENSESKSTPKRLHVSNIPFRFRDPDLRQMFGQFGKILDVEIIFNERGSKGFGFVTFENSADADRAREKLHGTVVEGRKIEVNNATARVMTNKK
`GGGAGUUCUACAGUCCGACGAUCCCGAGUGCUCGAAUGGUGUAUUUACAAUGUGAUUCUAGUCUCUUCUUCAGGGAACAUGCCUGCAUUACAUGAAAUUCCAUGCGCCCAGCUGGUUAUUUCUUGUCUUCCAUUGGAAUUCUCGGGUGCCAA`: “RBNS enrichment (R)” 0.344.
Under “RBNS enrichment (R)”, `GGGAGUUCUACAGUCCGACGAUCGAGAAGGUAACCUUUGCCUACAUAUGGCUGUCCUACAGGGUCUCCCUUGCCUGCAGUGGGAGAGUUGCCCAGUGGUUCCCCAUCCCCCAUUAUAUUCUAAUGCUAAAUCAUGGAAUUCUCGGGUGCCAA` is recorded as 0.571.
For `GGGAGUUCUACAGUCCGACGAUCAACUGCUGUACUUUUGAUUCUUGUAUAUUAAAAAGUGUUACUGAGCAUUUUUAGAAUUGGGCUAACACGUUGCAUUGCAUUGUGGUGUGAGCUCUGUGACUAGAGAUACCUGGAAUUCUCGGGUGCCAA`, “RBNS enrichment (R)” read 3.06.
`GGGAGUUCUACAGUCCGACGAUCCAACGAAAACCUGUGCUUGUGUGUGUGUGGCGGCGGGGAGGGAGGAUCCUGUUUCCCACCUCCUUCUCCUCCCCUGUACUCCCCAGUGCCUUCCUUGUUCUGGUGGAGCUUGGAAUUCUCGGGUGCCAA` — result for “RBNS enrichment (R)”: 0.511.
For `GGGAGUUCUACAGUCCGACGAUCUCAUUCCUGGCAAUUCCCUCCCAAUCCUGCAGGUGCAACCUGCCAGGCCUGGGCCAUUGUCCUCAUCCUGUAGUCAGGGAUCAGGCAUGGGUUUUGAUUUCAGUUUUCCCUGGAAUUCUCGGGUGCCAA`, “RBNS enrichment (R)” read 0.268.
For `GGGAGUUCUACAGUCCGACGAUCAUUGUUUCACACAAAAAUUAAAAGUUUCCUAAUUAAUGUUGUAUUCAUAUAUGUAGGCUCUGAAAUGUUGUGAUGCUUAUUGCUUCUGUAUUUCUUCUCUACUCCCUAGUUGGAAUUCUCGGGUGCCAA`, “RBNS enrichment (R)” read 0.403.
`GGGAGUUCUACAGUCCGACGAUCAAGUUACUCUGAGUUUCUUGGCAGAGUUUUUGACAGCUGUUGCUUUCAAUGGAUUCCAUUCCUGUAUUCCUUAUGGGAGGUUGUUUUUAAAAUAGACUACUGCGAUUGAAUGGAAUUCUCGGGUGCCAA`: “RBNS enrichment (R)” 0.342.
`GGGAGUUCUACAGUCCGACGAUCUAAGAUCUGAACAUCAGUUUGCAGACAAAAUUAAAUUAGAGCUUUAUUUUAUUUGGAGAAGAGGGAUACAAUGGAAUUUUUCCUUACCAAUUAGAAAUAAUUGUAAUGCCUGGAAUUCUCGGGUGCCAA` — result for “RBNS enrichment (R)”: 0.715.
